Measured values gathered from unrelated publications.
A part holds a random share of what one study measured. Changes are numbered by the printed parent chain.

Sample 1
Target: CEP164, C-terminal peptide (human)
Technique: DHFR complementation, deep sequencing
Matrix: yeast
Setting: single substitutions, model-inferred values
Relative to: wild type
Direction: higher = weaker binding
Endpoint: binding free energy change
Starting sequence: PDZK1, PDZ domain 2 (human); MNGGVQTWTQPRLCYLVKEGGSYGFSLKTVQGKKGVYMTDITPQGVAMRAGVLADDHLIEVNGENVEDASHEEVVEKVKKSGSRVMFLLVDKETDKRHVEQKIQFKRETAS; partner HNRVKVYRF
E67L: -0.0574 kcal/mol
V17T: -0.0533 kcal/mol
Q31R: 0.0474 kcal/mol
V90P: 1.01 kcal/mol
V90K: -0.118 kcal/mol
L16N: 1.48 kcal/mol
L27A: 0.295 kcal/mol
H57C: -0.395 kcal/mol

Sample 2
Target: CCNA1, cyclin fold, Cln2 fusion (human)
Technique: yeast growth competition, sequencing
Matrix: yeast
Setting: weak parent motif
Relative to: not given
Direction: higher = stronger binding
Endpoint: normalised enrichment score
Starting sequence: viral docking peptide; PTARRRLLHDLDT
PTARRRLLHDLAT [D12A]: 0.0574
PTARRRLLFDLDT [H9F]: 1.36
PTARRRLFHDLDT [L8F]: 1.52
PTARRALLHDLDT [R6A]: 0.527
PTARRRLLADLDT [H9A]: 0.625
PTARRRLLHDLDA [T13A]: 0.42
PTARRRALHDLDT [L7A]: 0.154
PTARRRLLHDADT [L11A]: 0.338

Sample 3
Target: TAR DNA-binding protein 43, full length, His tag (TARDBP, Homo sapiens, UniProt Q13148, residues 1-414)
Technique: RNA Bind-n-Seq
Form: RNA
Matrix: in vitro
Concentration: 20 nM
Setting: 6-mer, flanks averaged, single round
Together with: 150 mM LiCl
Relative to: input library
Direction: higher = stronger binding
Endpoint: 6-mer enrichment (R)
GCGCCG: 0.992
ACACUC: 0.877
GUGCCG: 1.07
AGGUCA: 0.849
AUUCCC: 0.956
UCUUGU: 1.08
AUGCCA: 0.896
CUGUUA: 0.978

Sample 4
Target: Sox-I, HMG box (Salpingoeca helianthica)
Technique: Spec-seq
Form: double-stranded DNA, one strand shown
Matrix: in vitro
Concentration: not given
Setting: whole probe, mean of replicates
Relative to: not given
Direction: lower = stronger binding
Endpoint: relative binding energy
All sequences stand within: GAGTCGTCTCGTCAGCAC … CCGTAGAGCACTCAGGTC
Residues (chain): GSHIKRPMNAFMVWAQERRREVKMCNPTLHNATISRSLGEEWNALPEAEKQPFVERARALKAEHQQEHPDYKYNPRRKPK
CACGGTT: 0.724 ln ratio
CATCGAA: 0.827 ln ratio
TGTGGTT: 0.575 ln ratio
GGCCGTT: 0.987 ln ratio
AGTTGTT: -0.994 ln ratio
CATGAAA: 0.825 ln ratio
TATAGTT: -0.618 ln ratio
CATGGTG: 0.79 ln ratio

A few entries again (sample 4):
GGCCGTT: 0.987 ln ratio
TGTGGTT: 0.575 ln ratio
CATGGTG: 0.79 ln ratio
